Measurements pooled from the literature.
Lines come from different studies, so protocols differ. ± marks the error that the study gave.

Structure (SMILES) | target or system | assay | test system | setting | scale | endpoint | value
O=C(O)C(Cc1c[nH]cn1)N1C(=O)c2ccc3c4ccc5c6c(ccc(c7ccc(c2c37)C1=O)c64)C(=O)N(C(Cc1c[nH]cn1)C(=O)O)C5=O (stereo not drawn) |  | shake-flask | 1-octanol/phosphate buffer | pH 8.0 |  | log D | -2.23 ± 0.06
O=C(O)CN1CCN(CC(=O)O)CCN(Cc2cccc(P(=O)(O)O)n2)CC1 |  | potentiometric titration |  | first phosphonate deprotonation |  | log Ka | -0.3
O=C(O)CN1CCN(CC(=O)O)CCN(CC(O)CN(CC(O)CN2CCN(CC(=O)O)CCN(CC(=O)O)CCN(CC(=O)O)CC2)C[C@H](O)[C@@H](O)[C@H](O)[C@H](O)CO)CCN(CC(=O)O)CC1 (stereo partly drawn) |  | pH-potentiometry | 0.15 M NaCl | 25 °C |  | log K Ca2(HL) | 5.25
Clc1cc2nc(c1)CNCc1cc(Cl)cc(n1)CNC2 |  | protonation constant, potentiometry |  | 298 K, ionic strength 0.15 M NaCl |  | log K1 | 7.7
CN(C)CCCCCN(C)Cc1cc2ccccc2o1.Cl | Trypanosoma cruzi | reporter mRNA translation, inhibitor, measured: capped polyadenylated Renilla luciferase mRNA | cell-free extract | concentration not given | relative to: control RNA | relative translation | 112%
c1ccc(CN2CCCNCCNCCCNCC2)nc1 |  | potentiometry | aqueous 1.0 M KCl | 25 °C, L + H+ to HL |  | log overall protonation constant | 11.5
CCCCC[C@@H]1OC(=O)[C@@H](C)N(C)C(=O)[C@H](CCCCC)N(C)C(=O)[C@@H](C)N(C)C(=O)[C@H](CCCCC)OC(=O)[C@@H](C)N(C)C(=O)[C@H](CCCCC)N(C)C(=O)[C@@H](C)N(C)C1=O |  | PAMPA |  | 500 µM, pH 7.4, UV/ELSD/MS detection |  | log Papp | -5.49
CC(C)Cc1ccc(C(C)C(=O)N[C@@H](CCCCNC(=O)CCOCCOCCOCCOCCOCCOCCNC(=O)CN2CCN(CC(=O)[O-])CCN(CC(=O)[O-])CCN(CC(=O)[O-])CC2)C(=O)Nc2cccc3c(C(=O)NCC(=O)N4CC(F)(F)C[C@H]4C#N)ccnc23)cc1.[177Lu+3] (stereo partly drawn) |  |  | octanol/PBS | pH 7.4, 177Lu-labelled |  | log P | -0.76 ± 0.11
Cc1cc(Cl)c(OCCOCCN2CCN(C)CC2)c(Br)c1.O=C(O)C(=O)O | Trypanosoma cruzi | reporter mRNA translation, inhibitor, measured: capped polyadenylated Renilla luciferase mRNA | cell-free extract | concentration not given | relative to: control RNA | relative translation | 115%
Oc1cccc(-c2cccc(O)n2)n1.[Cl-].[Cl-].[Ru+2].c1ccc(-c2ccnc3c2ccc2c(-c4ccccc4)ccnc23)cc1.c1ccc(-c2ccnc3c2ccc2c(-c4ccccc4)ccnc23)cc1 |  |  |  | pH 7.4 |  | log D octanol/water | > 3
CC(C)(C)N1Cc2cccc(n2)CN(C(C)(C)C)Cc2cc(-c3nc4ccccc4s3)cc(n2)C1.[64Cu+2] |  |  | octanol/PBS | 64Cu complex, no HPLC purification |  | log D | 1.12
N#C[C@@H]1CC(F)(F)CN1C(=O)CNC(=O)c1ccnc2c(NC(=O)[C@H](CCCCNC(=O)CCOCCOCCOCCOCCOCCOCCNC(=O)CN3CCN(CC(=O)[O-])CCN(CC(=O)[O-])CCN(CC(=O)[O-])CC3)NC(=O)CCCc3ccc(I)cc3)cccc12.[177Lu+3] |  |  | octanol/PBS | pH 7.4, 177Lu-labelled |  | log P | -0.96 ± 0.16
c1ccc(-c2cc3cn[nH]c3nn2)cc1 |  | IAM.PC.DD2 HPLC |  | pH 7.4 |  | log k(IAM) | 1.25
CCCCC[C@@H]1OC(=O)[C@@H](C)N(C)C(=O)[C@H](CCCCC)OC(=O)[C@@H](C)NC(=O)[C@H](CCCCC)OC(=O)[C@@H](C)NC(=O)[C@H](CCCCC)OC(=O)[C@@H](C)NC1=O |  | PAMPA, HPLC-UV |  | 500 µM, pH 7.4 |  | log Papp | -5.95 ± 0.09
COc1cc2cn[nH]c2nn1 |  | IAM.PC.DD2 HPLC |  | pH 7.4 |  | log k(IAM) | 2.29
Cc1cn(CC(=O)N(CCN)CC(=O)O)c(=O)[nH]c1=O |  | IAM chromatography |  | pH 7.0, 30 °C, extrapolated to 0% acetonitrile |  | log kW IAM | -0.73
CC[P+](c1ccccc1)(c1ccccc1)c1ccccc1 |  | HPLC | octanol/water | 100 µM |  | log P | -1.36
CCCCC[C@@H]1OC(=O)[C@@H](C)N(C)C(=O)[C@H](CCCCC)OC(=O)[C@@H](C)N(C)C(=O)[C@H](CCCCC)OC(=O)[C@@H](C)NC(=O)[C@H](CCCCC)OC(=O)[C@@H](C)NC1=O |  | PAMPA, HPLC-UV |  | 500 µM, pH 7.4 |  | log Papp | -5.31 ± 0.03
FC(F)(F)c1cc2nc(c1)CNCc1cc(C(F)(F)F)cc(n1)CNC2 |  | protonation constant, potentiometry |  | 298 K, ionic strength 0.15 M NaCl |  | log K1 | 7.5
CNC(=O)C1CCCN(C(=O)C2CC3CCC2N3C(=O)[C@@H]2C[C@@H](O)CN2C(=O)NCc2cccc(Cl)c2F)C1 (mixture of isomers) |  | shake-flask octanol/buffer |  | pH 7.4 |  | log D | 3.9
O=C(O)c1cccc(CN2Cc3cccc(n3)CN(Cc3cccc(C(=O)O)n3)Cc3cccc(n3)C2)n1 |  | potentiometric titration | 0.16 M NaCl | 25 °C |  | log KHL | 9.84
O=C([O-])CN1CCCN2CCN(CCCN(CC(=O)NC(Cc3ccccc3)C(=O)NC(Cc3ccccc3)C(=O)NCCCC[C@H](NC(=O)CCCCCCC(=O)NCCCC[C@H](NC(=O)N[C@@H](CCC(=O)O)C(=O)O)C(=O)O)C(=O)O)CC2)CC1.[64Cu+2] (single isomer, unassigned) |  |  | octanol/water |  |  | log P | -2.68
CCCCC[C@@H]1OC(=O)[C@@H](C)N(C)C(=O)[C@H](CCCCC)OC(=O)[C@@H](C)N(C)C(=O)[C@H](CCCCC)OC(=O)[C@@H](C)N(C)C(=O)[C@H](CCCCC)OC(=O)[C@@H](C)NC1=O |  | PAMPA, HPLC-UV |  | 500 µM, pH 7.4 |  | log Papp | -5.27 ± 0.04
CN(CCNCc1ccncc1[O-])CCNCc1ccncc1[O-].[Cl-].[Fe+3] |  | measured: Fe(III) |  | 1 weeks, pH 7.4, together with: EDTA competitor |  | log conditional stability constant | 21.1
CCCCC[C@@H]1OC(=O)[C@@H](C)N(C)C(=O)[C@H](CCCCC)OC(=O)[C@@H](C)NC(=O)[C@H](CCCCC)OC(=O)[C@@H](C)N(C)C(=O)[C@H](CCCCC)OC(=O)[C@@H](C)NC1=O |  | PAMPA |  | 500 µM, pH 7.4 |  | log Papp | 2.09 ×10⁻⁶ cm/s
O=C([O-])CN1CCN(CC(=O)[O-])CCN(CC(O)CN(CC(O)CN2CCN(CC(=O)[O-])CCN(CC(=O)[O-])CCN(CC(=O)[O-])CC2)C[C@H](O)[C@@H](O)[C@H](O)[C@H](O)CO)CCN(CC(=O)[O-])CC1.[Gd+3] (stereo partly drawn) |  | pH-potentiometry, measured: Gd(LH-1)M, M = Zn2+ |  | 25 °C, 0.15 M NaCl |  | log K | 10.3
NCCN(CC(=O)O)C(=O)Cn1ccc(N)nc1=O |  | IAM chromatography |  | pH 7.0, 30 °C, extrapolated to 0% acetonitrile |  | log kW IAM | -0.75
CCCCC[C@@H]1OC(=O)[C@@H](C)N(C)C(=O)[C@H](CCCCC)OC(=O)[C@@H](C)N(C)C(=O)[C@H](CCCCC)N(C)C(=O)[C@@H](C)N(C)C(=O)[C@H](CCCCC)OC(=O)[C@@H](C)N(C)C1=O |  | PAMPA, HPLC-UV |  | 500 µM, pH 7.4 |  | log Papp | -5.22 ± 0.05
NCCN(CC(=O)O)C(=O)Cn1cnc2c(=O)[nH]c(N)nc21 |  | IAM chromatography |  | pH 7.0, 30 °C, extrapolated to 0% acetonitrile |  | log kW IAM | -0.73
CCCCC[C@@H]1OC(=O)[C@@H](C)NC(=O)[C@H](CCCCC)OC(=O)[C@@H](C)NC(=O)[C@H](CCCCC)OC(=O)[C@@H](C)NC(=O)[C@H](CCCCC)OC(=O)[C@@H](C)NC1=O |  | PAMPA |  | 500 µM, pH 7.4 |  | log Papp | 2.82 ×10⁻⁶ cm/s

Repeated from above:
Structure (SMILES) | target or system | assay | test system | setting | scale | endpoint | value
O=C(O)CN1CCN(CC(=O)O)CCN(CC(O)CN(CC(O)CN2CCN(CC(=O)O)CCN(CC(=O)O)CCN(CC(=O)O)CC2)C[C@H](O)[C@@H](O)[C@H](O)[C@H](O)CO)CCN(CC(=O)O)CC1 (stereo partly drawn) |  | pH-potentiometry | 0.15 M NaCl | 25 °C |  | log K Ca2(HL) | 5.25
CCCCC[C@@H]1OC(=O)[C@@H](C)N(C)C(=O)[C@H](CCCCC)OC(=O)[C@@H](C)NC(=O)[C@H](CCCCC)OC(=O)[C@@H](C)NC(=O)[C@H](CCCCC)OC(=O)[C@@H](C)NC1=O |  | PAMPA, HPLC-UV |  | 500 µM, pH 7.4 |  | log Papp | -5.95 ± 0.09
Cc1cc(Cl)c(OCCOCCN2CCN(C)CC2)c(Br)c1.O=C(O)C(=O)O | Trypanosoma cruzi | reporter mRNA translation, inhibitor, measured: capped polyadenylated Renilla luciferase mRNA | cell-free extract | concentration not given | relative to: control RNA | relative translation | 115%
